Assay results gathered from unrelated publications.
Every numbered part comes from another study and shows a few of its results, in no order. Substitutions count along the parent as printed.

Sample 1 — method: DHFR PCA, deep sequencing; matrix: yeast; with: (+)-ABA 1.4 µM; relative to: wild-type fitted maximum; reading: higher = stronger binding; endpoint: relative binding score
Target: ABI1, truncated, D143A, DHFR fusion (Arabidopsis thaliana)
Setting: methotrexate growth selection, single substitutions
Starting sequence: PYL1, truncated, DHFR fusion (Arabidopsis thaliana); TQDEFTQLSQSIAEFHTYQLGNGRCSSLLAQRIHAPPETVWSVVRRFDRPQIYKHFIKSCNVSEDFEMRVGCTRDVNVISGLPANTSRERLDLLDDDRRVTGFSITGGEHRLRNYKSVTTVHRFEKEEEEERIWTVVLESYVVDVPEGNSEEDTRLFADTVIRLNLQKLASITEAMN
H122I: -6.01%
A13C: 13.8%
T160I: -4.66%
P37M: 2.23%
T6Y: 30%
E174H: 21%
E152W: 21.4%
T119D: -3.07%
R163K: 64.3%

Sample 2 — method: protein-binding microarray; molecule type: double-stranded DNA, one strand shown; matrix: in vitro; tested at: 250 nM; setting: 60-bp whole probe; with: salmon DNA 0.4 mg/ml; relative to: random background probes; reading: higher = stronger binding; endpoint: log fluorescence; shared flanks, not repeated: GCCTAGCAC … GTCTTGATTCGCTTGACGCTGCTG
Target: Interferon regulatory factor 5, full length, phosphomimetic (IRF5, Homo sapiens, UniProt Q13568-2, residues 1-514, K96S/S451D/S453D/S456D/S462D)
TTGCAGATGACGAAACTGAAGTGCTAG: 2 z-score
TGAGTTTTCCTTCATGTGCCGTGCTAG: 0.559 z-score
TTAGGTATCCTTCTCCTTTAGTGCTAG: 0.365 z-score
GACGATTTCGGGACTTGAGACGTGCTA: 1.44 z-score
GACGGTATCGGTATCGAGACGTGCTAG: 6.52 z-score
TGTTTTACAGGTTCTCTTTTAGTGCTA: 0.652 z-score
ATGCCCCCCAAGAGGGGCGGGTGCTAG: -0.227 z-score
CTACTTCTCTTTTGGCTTTCGTGCTAG: 1.93 z-score
GACGATTGCGGGTATCGAGACGTGCTA: 0.736 z-score
GACGGTTTCCTTTCCCTGCCGTGCTAG: 1.5 z-score
TAGGGACTCAGGTCTCCCTTGGTGCTA: -0.648 z-score
TTAGGACTCCTTATCCTTTAGTGCTAG: 0.162 z-score

Sample 3 — method: RNA Bind-n-Seq; molecule type: RNA; matrix: in vitro; tested at: 365 nM; relative to: no-protein control; reading: higher = stronger binding; endpoint: RBNS enrichment (R)
Target: RNA binding protein fox-1 homolog 2, RRM domain, GST-SBP tag (RBFOX2, Homo sapiens, UniProt O43251-10, residues 100-194)
Setting: natural RNA segment, single round, ends assumed
Construct (chain): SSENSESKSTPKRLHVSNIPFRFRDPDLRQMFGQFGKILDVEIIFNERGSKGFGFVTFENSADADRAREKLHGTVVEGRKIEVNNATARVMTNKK
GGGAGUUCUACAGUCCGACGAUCCUCACUGGAGAGAGCAAGCACAGGAAGCUGGCUGCAGUGCCUUCCUCAUGAAGGAUCUACCACAACCCUGGCCUUUUUAAAACUGAGAGUAGCAGAAUUAAUAGAGAAAUUGGAAUUCUCGGGUGCCAA: 0.404
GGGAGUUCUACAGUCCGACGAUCAAUUAGCCGCUUCUUUUCCUCCCAACCUCUUAGCCGGGUAGAGAGGCAUUCCCAGGGGCUCCUGUCCAGCUGUCUCUGUCUGGGAAUGAUCUAACCUGGGUUGAGCCUCCUGGAAUUCUCGGGUGCCAA: 0.258
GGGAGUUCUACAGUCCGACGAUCCCUAUCCCACACUGGCCCCACACCGGUGGUCUCCCUGCCUCAGCCAGGCUACUGCUGGGACACGCACAGGAAGGAGCAUGAGGGGGGGUUGGGAAGCAGUCGCCUGCCUGUGGAAUUCUCGGGUGCCAA: 0.469
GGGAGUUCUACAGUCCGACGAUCGCUGUCAUCCCCUCCCCCAACCUUGGCCACUUGAGUUUGUCCUCCAAGGGUAGGUGUCUCAUUUGUUCUGGCCCCUUGGAUUUAAAAAUAAAAUUAAUUUCCUGUUGAUAUGGAAUUCUCGGGUGCCAA: 0.877
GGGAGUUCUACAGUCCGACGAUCUUUAAAAGAAGUUUUAAGAUAGAUAUUAAUAUGAAGUGUGUAAUAUUUCUUUUGAGGGUCAAAUAUUUGGCACAUUAUAUAAAAAUAUAAAUUAAAAAUUAUAUGCAUGUUGGAAUUCUCGGGUGCCAA: 13.9
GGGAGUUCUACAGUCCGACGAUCUAGAGAGCUGUUAUUUCUAAAGGGGAAACCAGCUUUCUGUUCCAAAUGGAAGUUAGGUGAGGAGUUGAAGGUUGGUUUCUUGCGCUGUGCUUCCUUGGCUUGGGGGAGGGUGGAAUUCUCGGGUGCCAA: 2.64
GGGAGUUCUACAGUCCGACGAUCUCUGAGCCCUUCAGUUUCAUAAUUGUUUUAUCCUGAACGUAGUUGUGACAUAGACAUUUCUCAAAAGGGUCUGAUACAUCAAACUCCUAACAAGUAGGAGCAGCAACUAGUGGAAUUCUCGGGUGCCAA: 0.291
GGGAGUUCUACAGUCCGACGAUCUGAAUACCAGGAUUGACUGCAUCCCUUUAAAGAAGUUUUAUGUCCCUGACUCUGGCUAAAAUUAUCUAAUUUCCAGAUGCUUUUGUAGAUGACUGAAGUAUUUGUGAGCCUGGAAUUCUCGGGUGCCAA: 0.764
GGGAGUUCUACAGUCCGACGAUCUCAUUUUAGAAGUAGACAGAAAAAAAUAUCUAAGCUCAGGUAAUACUGAAAAAGCCAAAAUGUUUUGUUUCGUUUCUUUUUUUUUUUUUUUUUUAAAGAUAAACUUGUGUUGGAAUUCUCGGGUGCCAA: 1.06
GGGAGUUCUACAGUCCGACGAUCCCUUCAGGUCUGGGGCCAGGAGUGGGACCCACCAUUUGUGGGGAAAGUAGCAUUCCUCCACCUCAGGCCUUGGGUAGAUUUGGCAAAAGAACAGGAGCAGCAUAGGCUGUUGGAAUUCUCGGGUGCCAA: 0.449
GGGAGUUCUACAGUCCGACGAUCGCAAGCAGUGUAAACUGCAACUAGUGAUGUAAAUGUGCUAUUACCUAGGUAACUGCAUAUAUAUAAGGAAUGUAUUUUGUUAAGAAGGCUUUUGUGAAAUUCAGAAUUUUUGGAAUUCUCGGGUGCCAA: 0.493
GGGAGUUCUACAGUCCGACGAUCUAGGCUUCUAUUACCUAUUAGGUGGAAAUUUUAUAUGUAAAUGUGUUAGCACUGAUAGUCCUUUUUCCAAUGUUUUAUUGGGGAAUUAAAUAGUGUGAUGUUUGGAUUGAUGGAAUUCUCGGGUGCCAA: 0.455

Sample 4 — target: CCNA2, cyclin fold, Cln2 fusion (human); method: yeast growth competition, sequencing; matrix: yeast; setting: weak parent motif; relative to: not given; reading: higher = stronger binding; endpoint: normalised enrichment score
Starting sequence: E2F7 docking peptide (human); SSAQRRLEIPSGG
SSAQRRLELPSGG [I9L]: 0.8
SAAQRRLEIPSGG [S2A]: 0.258
SSAQKRLEIPSGG [R5K]: -0.0827
SSAQRRLEIASGG [P10A]: 0.41
SSAQRALEIPSGG [R6A]: -0.61
SSAARRLEIPSGG [Q4A]: 1.09
SSAQRRLEIPAGG [S11A]: 0.289
SSAQRRLEAPSGG [I9A]: 0.207

Excerpt of the above (sample 2):
ATGCCCCCCAAGAGGGGCGGGTGCTAG: -0.227 z-score
CTACTTCTCTTTTGGCTTTCGTGCTAG: 1.93 z-score
